# Measurements gathered from unrelated publications.
# Lines come from different studies, so protocols differ. Values joined by “and” are separate records of one study, mostly repeats; a detail may differ. Numbers after ± are the reported error.
# Genome polyprotein NS3 helicase domain: Genome polyprotein, NS3 helicase domain (Hepatitis C virus genotype 1b, UniProt Q9WMX2)
# WD repeat-containing protein 91 WD40 domain, residues 392–747: WD repeat-containing protein 91, WD40 domain, residues 392–747 (Homo sapiens, UniProt A4D1P6)
# CALM1 Ca2+-bound N-lobe: Calmodulin-1, Ca2+-bound N-lobe (CALM1, Homo sapiens, UniProt P0DP23)
# NAA80: N-alpha-acetyltransferase 80 (NAA80, Homo sapiens, UniProt Q93015)
# UniProt Q93015, sequence (whole entry, looked up): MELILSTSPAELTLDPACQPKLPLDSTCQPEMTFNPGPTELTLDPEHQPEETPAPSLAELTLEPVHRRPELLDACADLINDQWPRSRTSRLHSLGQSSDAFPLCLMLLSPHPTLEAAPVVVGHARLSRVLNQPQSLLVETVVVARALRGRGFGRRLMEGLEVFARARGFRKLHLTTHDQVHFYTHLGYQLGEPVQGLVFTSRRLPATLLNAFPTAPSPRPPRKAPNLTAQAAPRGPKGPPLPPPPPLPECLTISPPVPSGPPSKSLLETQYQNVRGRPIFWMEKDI
# RORC: Nuclear receptor ROR-gamma (RORC, Homo sapiens, UniProt P51449)
# UniProt P51449, sequence (whole entry, looked up): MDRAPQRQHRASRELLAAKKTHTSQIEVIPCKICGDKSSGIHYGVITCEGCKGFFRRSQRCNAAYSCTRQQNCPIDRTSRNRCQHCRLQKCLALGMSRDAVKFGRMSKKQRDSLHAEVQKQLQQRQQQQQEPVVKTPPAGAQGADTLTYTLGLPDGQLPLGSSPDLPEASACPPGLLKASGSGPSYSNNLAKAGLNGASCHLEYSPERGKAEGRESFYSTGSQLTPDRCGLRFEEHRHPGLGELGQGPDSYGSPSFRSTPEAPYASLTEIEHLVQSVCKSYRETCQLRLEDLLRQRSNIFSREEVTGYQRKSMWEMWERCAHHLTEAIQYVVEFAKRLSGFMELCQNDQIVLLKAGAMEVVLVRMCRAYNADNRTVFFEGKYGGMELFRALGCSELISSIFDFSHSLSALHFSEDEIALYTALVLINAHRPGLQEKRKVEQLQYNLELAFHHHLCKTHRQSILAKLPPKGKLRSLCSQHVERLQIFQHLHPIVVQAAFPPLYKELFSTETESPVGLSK
# ESR1: Estrogen receptor (ESR1, Homo sapiens, UniProt P03372)
# UniProt P03372, sequence (whole entry, unmodified, looked up): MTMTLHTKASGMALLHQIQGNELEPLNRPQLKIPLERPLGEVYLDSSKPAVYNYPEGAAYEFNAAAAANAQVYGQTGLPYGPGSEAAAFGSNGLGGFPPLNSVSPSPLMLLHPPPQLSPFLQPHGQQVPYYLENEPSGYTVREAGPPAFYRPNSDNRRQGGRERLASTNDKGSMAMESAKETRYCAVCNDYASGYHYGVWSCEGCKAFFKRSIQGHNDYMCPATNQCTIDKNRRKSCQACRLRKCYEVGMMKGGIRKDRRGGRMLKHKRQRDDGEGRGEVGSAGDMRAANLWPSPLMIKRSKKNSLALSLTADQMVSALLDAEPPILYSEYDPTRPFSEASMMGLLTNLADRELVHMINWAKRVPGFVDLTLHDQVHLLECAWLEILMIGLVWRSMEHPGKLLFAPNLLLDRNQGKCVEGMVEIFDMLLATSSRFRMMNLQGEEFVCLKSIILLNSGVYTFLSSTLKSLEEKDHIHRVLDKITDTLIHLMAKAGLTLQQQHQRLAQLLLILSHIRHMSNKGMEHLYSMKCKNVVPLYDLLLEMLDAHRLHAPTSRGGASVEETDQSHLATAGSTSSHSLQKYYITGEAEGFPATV
# WD repeat-containing protein 91: WD repeat-containing protein 91 (Homo sapiens, UniProt A4D1P6)
# UniProt Q64663, sequence (whole entry, unmodified, looked up): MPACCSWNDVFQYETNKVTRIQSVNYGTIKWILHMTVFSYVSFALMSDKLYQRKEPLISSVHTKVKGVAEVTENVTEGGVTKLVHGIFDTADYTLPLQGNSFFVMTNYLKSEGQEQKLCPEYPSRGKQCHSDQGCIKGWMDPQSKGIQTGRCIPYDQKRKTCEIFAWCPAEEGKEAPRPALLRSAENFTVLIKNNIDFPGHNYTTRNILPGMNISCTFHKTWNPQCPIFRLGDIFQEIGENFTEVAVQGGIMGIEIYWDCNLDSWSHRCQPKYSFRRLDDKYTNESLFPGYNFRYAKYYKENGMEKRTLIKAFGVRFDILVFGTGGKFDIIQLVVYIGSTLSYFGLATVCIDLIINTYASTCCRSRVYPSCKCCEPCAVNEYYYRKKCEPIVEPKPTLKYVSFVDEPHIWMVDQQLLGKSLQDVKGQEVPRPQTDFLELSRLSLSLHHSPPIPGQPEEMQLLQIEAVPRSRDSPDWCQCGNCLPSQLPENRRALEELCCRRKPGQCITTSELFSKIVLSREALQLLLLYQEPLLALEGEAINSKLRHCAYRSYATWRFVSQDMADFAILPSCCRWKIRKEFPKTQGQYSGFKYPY
SMILES,target or system,assay,system,conditions,scale,quantity,result
CC(C)(C)[C@]1(O)CCN2C[C@H]3c4ccccc4CCc4cccc(c43)[C@@H]2C1,Genome polyprotein NS3 helicase domain,"DNA binding, inhibitor",hepatitis C virus,"100 µM, together with: Cy5-dT15 DNA",,inhibition,0%
COc1ccc(-c2nnc(SCC(=O)Nc3c(F)cc(F)cc3Br)n2C)cc1,"Cyclin-dependent kinase 2 (CDK2, Homo sapiens, UniProt P24941)",binding,,,,Kd,> 100 µM
CC[C@H](C)[C@H](NC(=O)[C@H](CCSC)NC(=O)[C@H](CCSC)NC(=O)[C@H](C)NC(=O)[C@H](C)NC(=O)[C@H](Cc1ccc(O)cc1)NC(=O)[C@@H](NC(=O)[C@H](CCCCN)NC(=O)CNC(=O)[C@@H](NC(=O)[C@@H](NC(=O)[C@H](CCSC)NC(=O)[C@H](Cc1c[nH]cn1)NC(=O)CN)[C@@H](C)O)C(C)C)[C@@H](C)CC)C(=O)N[C@@H](C)C(=O)N[C@@H](CCC(=O)O)C(=O)N[C@@H](Cc1ccc(O)cc1)C(=O)N[C@@H](Cc1ccc(O)cc1)C(=O)N[C@@H](CCCNC(=N)N)C(=O)N[C@@H](CCC(N)=O)C(=O)N[C@@H](CO)C(=O)N[C@@H](CCCCN)C(=O)N[C@@H](C)C(=O)N[C@@H](CCCCN)C(=O)N[C@@H](CCCCN)C(=O)N[C@@H](CC(C)C)C(=O)N[C@@H](CCC(N)=O)C(=O)N[C@@H](C)C(=O)N[C@@H](CCSC)C(=O)N[C@@H](CCCNC(=N)N)C(=O)O,"Calmodulin-1, Ca2+-bound C-lobe (CALM1, Homo sapiens, UniProt P0DP23)","binding, isothermal titration calorimetry",,"pH 7.4, 15 °C, C-lobe, CaV2.1 IQ domain, together with: Ca2+",,ΔS,10.4 ± 0.6 cal/mol/K
CC(C)c1ccc(C(=O)NCCOc2ccc(C(=O)N3CCC(C#N)CC3)cc2)cc1,"WD repeat-containing protein 91 WD40 domain, residues 392–747","binding, SPR single-concentration screen",,45 µM,,SPR response,0.8 RU and -0.5 RU
CC[C@H](C)[C@H](NC(=O)[C@H](CCCCN)NC(=O)CNC(=O)[C@@H](NC(=O)[C@@H](NC(=O)[C@H](CCSC)NC(=O)[C@H](Cc1c[nH]cn1)NC(=O)CN)[C@@H](C)O)C(C)C)C(=O)N[C@@H](Cc1ccc(O)cc1)C(=O)N[C@@H](C)C(=O)N[C@@H](C)C(=O)N[C@@H](CCSC)C(=O)N[C@@H](CCSC)C(=O)N[C@H](C(=O)N[C@@H](CCSC)C(=O)N[C@@H](CCC(=O)O)C(=O)N[C@@H](Cc1ccc(O)cc1)C(=O)N[C@@H](Cc1ccc(O)cc1)C(=O)N[C@@H](CCCNC(=N)N)C(=O)N[C@@H](CCC(N)=O)C(=O)N[C@@H](CO)C(=O)N[C@@H](CCCCN)C(=O)N[C@@H](C)C(=O)N[C@@H](CCCCN)C(=O)N[C@@H](CCCCN)C(=O)N[C@@H](CC(C)C)C(=O)N[C@@H](CCC(N)=O)C(=O)N[C@@H](C)C(=O)N[C@@H](CCSC)C(=O)N[C@@H](CCCNC(=N)N)C(=O)O)[C@@H](C)CC,CALM1 Ca2+-bound N-lobe,"binding, isothermal titration calorimetry",,"pH 7.4, 15 °C, N-lobe, CaV2.1 IQ domain, together with: Ca2+",,ΔH,-5.41 ± 0.21 kcal/mol
Cc1ccc(S(=O)(=O)/C=C/C#N)cc1,Genome polyprotein NS3 helicase domain,"DNA binding, inhibitor",hepatitis C virus,"100 µM, together with: Cy5-dT15 DNA",,inhibition,0%
O=C(Nc1cccc2c(=O)cc(-c3nnn[nH]3)oc12)c1ccc(OCCCCc2ccccc2)cc1,"Volume-regulated anion channel subunit LRRC8C, part LRRC8A IL1 chimera (LRRC8C, Homo sapiens, UniProt Q8TDW0)","ion current, inhibitor, whole-cell patch clamp","HCT116 LRRC8 knockout, transfected","-100 mV, hypotonic swelling, normal ionic strength",,Hill coefficient,0.7
Nc1c(S(=O)(=O)O)cc(Nc2ccc(Nc3nc(Cl)nc(Nc4cccc(S(=O)(=O)O)c4)n3)c(S(=O)(=O)O)c2)c2c1C(=O)c1ccccc1C2=O,Genome polyprotein NS3 helicase domain,"DNA binding, inhibitor",hepatitis C virus,"100 µM, together with: Cy5-dT15 DNA",,inhibition,86%
CC[C@H](C)[C@H](NC(=O)[C@H](CCCCN)NC(=O)CNC(=O)[C@@H](NC(=O)[C@@H](NC(=O)[C@H](CCSC)NC(=O)[C@H](Cc1c[nH]cn1)NC(=O)CN)[C@@H](C)O)C(C)C)C(=O)N[C@@H](Cc1ccc(O)cc1)C(=O)N[C@@H](C)C(=O)N[C@@H](C)C(=O)N[C@@H](CCSC)C(=O)N[C@@H](CCSC)C(=O)N[C@@H](C)C(=O)N[C@@H](CCSC)C(=O)N[C@@H](CCC(=O)O)C(=O)N[C@@H](Cc1ccc(O)cc1)C(=O)N[C@@H](Cc1ccc(O)cc1)C(=O)N[C@@H](CCCNC(=N)N)C(=O)N[C@@H](CCC(N)=O)C(=O)N[C@@H](CO)C(=O)N[C@@H](CCCCN)C(=O)N[C@@H](C)C(=O)N[C@@H](CCCCN)C(=O)N[C@@H](CCCCN)C(=O)N[C@@H](CC(C)C)C(=O)N[C@@H](CCC(N)=O)C(=O)N[C@@H](C)C(=O)N[C@@H](CCSC)C(=O)N[C@@H](CCCNC(=N)N)C(=O)O,CALM1 Ca2+-bound N-lobe,"binding, isothermal titration calorimetry",,"pH 7.4, 15 °C, N-lobe, CaV2.1 IQ domain, together with: Ca2+",,ΔH,-5.45 ± 0.02 kcal/mol
[H]/N=C(/N)NCC(=O)O,"Sodium- and chloride-dependent taurine transporter (SLC6A6, Homo sapiens, UniProt P31641, G62A)","binding, microscale thermophoresis",,"30.5 nM, room temperature, together with: 50 nM labelled protein",higher = more binding,normalised MST signal,0.0617
Nc1c(Br)cc(Br)cc1CN[C@H]1CC[C@H](O)CC1,"Glutamate receptor 2 (Homo sapiens, UniProt P42262)","ion current, positive allosteric modulator, SyncroPatch patch clamp",HEK293,3 µM,,potentiation,92%
Nc1ncnc2c1ncn2[C@@H]1O[C@H](COP(=O)(O)OP(=O)(O)OP(=O)(O)O)[C@@H](O)[C@H]1O,"Hexokinase-3 (HK3, Homo sapiens, UniProt P52790)","enzyme activity, substrate, coupled G6PDH",,"Michaelis-Menten fit, together with: glucose 0.5 mM",,kcat,46 ± 12 s⁻¹
NCC(=O)O,NAA80,"substrate, DTNB",,"2 mM, 30 min, 37 °C, together with: acetyl-CoA 500 µM",,product formation,-3.68 µM
O=C(COC(=O)c1cccc(N2C(=O)C3C4c5ccccc5C(c5ccccc54)C3C2=O)c1)c1ccc(Cl)cc1 (stereo not shown),RORC,cell-based,,concentration not given,,activity class,active
CC(C)c1cccc(C(C)C)c1N1C(=O)c2ccc(O)cc2C1=O,Genome polyprotein NS3 helicase domain,"DNA binding, inhibitor",hepatitis C virus,"100 µM, together with: Cy5-dT15 DNA",,inhibition,0%
Nc1ncnc2c(CN3CC(CSc4ccc(Cl)cc4)[C@H](O)C3)c[nH]c12 (stereo partly shown),"Aminodeoxyfutalosine nucleosidase (Helicobacter pylori, UniProt Q9ZMY2)",,,forward isomerization rate,,k3,16 ± 8 min⁻¹
O=C1CC[C@H](N2Cc3cc(N4CCN(CC5CCN(c6ccc([C@@H]7c8ccc(O)cc8CC[C@@H]7c7ccccc7)cc6)CC5)CC4)ccc3C2=O)C(=O)N1,"Estrogen receptor (ESR1, Homo sapiens, UniProt P03372, D538G)","degrader, western blot",MCF7 ESR1 D538G,"10 and 100 nM, 7 h",,ER level reduction,> 80%
COc1cc(O)c2c(=O)c(O[C@@H]3O[C@H](CO)[C@@H](O)[C@H](O)[C@H]3O)c(-c3ccc(O[C@@H]4O[C@H](CO)[C@@H](O)[C@H](O)[C@H]4O)cc3)oc2c1,ESR1,array formation,PRL-HeLa,,reference: EC50 ERβ over EC50 ERα,selectivity ratio,0.81
O=c1nc(SCc2cc(F)cc(C(F)(F)F)c2)nc(SCc2ccc3nc(Cl)ccc3c2)[nH]1,"DNA topoisomerase 2-alpha (TOP2A, Homo sapiens, UniProt P11388)",decatenation,,"15.6 µM, replicate 1",,decatenated DNA,30%
NC(N)=O,NAA80,"substrate, DTNB",,"2 mM, 30 min, 37 °C, together with: acetyl-CoA 500 µM",,product formation,1.58 µM
Nc1ncnc2c1ncn2[C@@H]1O[C@H](COP(=O)(O)OP(=O)(O)OP(=O)(O)O)[C@@H](O)[C@H]1O,"P2X purinoceptor 7 (P2rx7, Rattus norvegicus, UniProt Q64663, I214A/Q143A)","ion current, agonist, two-electrode voltage clamp",Xenopus laevis oocytes,8100 µM,reference: highest concentration response,normalized current,1.01 and 0.985 and 1
COc1cc(/C=C/C(=O)/C=C/c2ccc(O)c(OC)c2)ccc1O,haemin,"binding, isothermal titration calorimetry",,"pH 7.4, 37 °C",,ΔG,-8.84 ± 0.263 kcal/mol
COc1c(C#N)cccc1CC(=O)Nc1ccc(N2CCc3sccc3C2)cc1,"WD repeat-containing protein 91 WD40 domain, residues 392–747","binding, SPR single-concentration screen",,45 µM,,SPR response,1 RU and -3.6 RU
COc1cccc2c(Nc3ccc4[nH]c(C(=O)N/N=C/c5ccc(SC)cc5)cc4c3)cc(C)nc12,RORC,"reporter gene, Gal4 hybrid reporter",,3 µM,reference: vehicle,activation,0.95 fold
CN1CCN(c2cc(-c3ccncc3)c(-c3ccc4ccccc4c3)nn2)CC1,"Endothelin receptor type B (EDNRB, Homo sapiens, UniProt P24530)","agonist, FLIPR",,12.5 µM,,activation,-0.1%
CCc1cnn2c(NCc3ccc[n+]([O-])c3)cc(N3CCCC[C@H]3CCO)nc12,"Bromodomain-containing protein 4 (BRD4, Homo sapiens, UniProt O60885)","19F NMR, refers to: tyrosine 119",,24 µM,reference: free protein,chemical shift change,-0.1 ppm
CCn1c(=O)[nH]c2cc(C(=O)NC(c3ccc(F)cc3)c3cnn(C)c3)ccc2c1=O (stereo not shown),WD repeat-containing protein 91,"binding, SPR steady state",,1.875 µM,,SPR response,13.3 RU
Nc1ncnc2c1ncn2[C@@H]1O[C@H](CO[P@](=O)(O)O[P@](=O)(O)O[P@@](=O)(O)S)[C@@H](O)[C@H]1O,"GUK1 (Homo sapiens, UniProt Q16774, S18A)","binding, ITC",,,,ΔG,-5.28 kcal/mol
CC(C)COC(=O)OCN1C(=O)CN(CCN2CC(=O)N(COC(=O)OCC(C)C)C(=O)C2)CC1=O,Genome polyprotein NS3 helicase domain,"DNA binding, inhibitor",hepatitis C virus,"100 µM, together with: Cy5-dT15 DNA",,inhibition,1%
O=C1CC[C@H](N2Cc3cc(N4CCN(CC5CCN(c6ccc([C@@H]7c8ccc(O)cc8CC[C@@H]7c7ccccc7)cc6)CC5)CC4)ccc3C2=O)C(=O)N1,ESR1,"degrader, in-cell western",MCF7,72 h,,Dmax,95%
Cn1cc(-c2ccc(-c3cncc(Cl)c3N3CCC4(CCNC4=O)CC3)cc2)cn1,COLO 205,"microarray, refers to: ATF3",,"concentration not given, 2 h, gene set ATF-3",reference: untreated cells,fold change in expression,1.65
Nc1ncnc2c1ncn2[C@@H]1O[C@H](COP(=O)(O)CP(=O)(O)OP(=O)(O)O)[C@@H](O)[C@H]1O,"P2X purinoceptor 1 (P2RX1, Homo sapiens, UniProt P51575, L218T)",calcium influx,,10 µM,reference: ionomycin response,calcium influx,100% and 92.2%
O=C(NC1CCCS(=O)(=O)c2ccccc21)c1ccc2nc(O)cnc2c1 (stereo not shown),WD repeat-containing protein 91,"binding, SPR steady state",,7.5 µM,,SPR response,28.6 RU
O=c1cc(-c2ccc(O)cc2)oc2c([C@@H]3O[C@H](CO)[C@@H](O)[C@H](O)[C@H]3O)c(O)cc(O)c12,ESR1,array formation,PRL-HeLa,,reference: EC50 ERβ over EC50 ERα,selectivity ratio,8.48

# For quick reference, copied from above:
SMILES,target or system,assay,system,conditions,scale,quantity,result
COc1c(C#N)cccc1CC(=O)Nc1ccc(N2CCc3sccc3C2)cc1,"WD repeat-containing protein 91 WD40 domain, residues 392–747","binding, SPR single-concentration screen",,45 µM,,SPR response,1 RU and -3.6 RU
O=C(COC(=O)c1cccc(N2C(=O)C3C4c5ccccc5C(c5ccccc54)C3C2=O)c1)c1ccc(Cl)cc1 (stereo not shown),RORC,cell-based,,concentration not given,,activity class,active
O=C(Nc1cccc2c(=O)cc(-c3nnn[nH]3)oc12)c1ccc(OCCCCc2ccccc2)cc1,"Volume-regulated anion channel subunit LRRC8C, part LRRC8A IL1 chimera (LRRC8C, Homo sapiens, UniProt Q8TDW0)","ion current, inhibitor, whole-cell patch clamp","HCT116 LRRC8 knockout, transfected","-100 mV, hypotonic swelling, normal ionic strength",,Hill coefficient,0.7
